{"data": "Experimental data pooled from the literature", "note": "Every numbered part comes from another study and shows a few of its results, in no order. Positions count from the first letter of the parent shown.", "chain of UniProt P68036 (whole entry, looked up)": "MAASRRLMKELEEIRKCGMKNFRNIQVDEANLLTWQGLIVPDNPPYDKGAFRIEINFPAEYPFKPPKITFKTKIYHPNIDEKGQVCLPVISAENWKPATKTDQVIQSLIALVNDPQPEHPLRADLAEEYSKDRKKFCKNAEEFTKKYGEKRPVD", "chain of UniProt Q969T4 (whole entry, looked up)": "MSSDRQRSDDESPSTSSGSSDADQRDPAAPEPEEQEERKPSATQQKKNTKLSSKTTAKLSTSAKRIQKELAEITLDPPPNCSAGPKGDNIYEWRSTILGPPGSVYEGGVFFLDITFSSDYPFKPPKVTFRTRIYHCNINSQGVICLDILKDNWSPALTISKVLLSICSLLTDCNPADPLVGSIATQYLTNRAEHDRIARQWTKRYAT", "chain of UniProt P62253 (whole entry, looked up)": "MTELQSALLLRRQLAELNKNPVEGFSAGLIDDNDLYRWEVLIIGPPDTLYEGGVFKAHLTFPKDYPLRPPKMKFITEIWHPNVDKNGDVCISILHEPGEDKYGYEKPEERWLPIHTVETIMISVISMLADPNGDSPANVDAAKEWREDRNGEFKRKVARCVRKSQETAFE", "chain of UniProt P61081 (whole entry, looked up)": "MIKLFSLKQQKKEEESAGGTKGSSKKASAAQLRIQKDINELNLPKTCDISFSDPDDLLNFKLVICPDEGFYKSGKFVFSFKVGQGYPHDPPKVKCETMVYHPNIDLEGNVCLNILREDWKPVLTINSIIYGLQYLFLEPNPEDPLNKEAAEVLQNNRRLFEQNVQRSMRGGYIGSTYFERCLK", "chain of UniProt O00762 (whole entry, looked up)": "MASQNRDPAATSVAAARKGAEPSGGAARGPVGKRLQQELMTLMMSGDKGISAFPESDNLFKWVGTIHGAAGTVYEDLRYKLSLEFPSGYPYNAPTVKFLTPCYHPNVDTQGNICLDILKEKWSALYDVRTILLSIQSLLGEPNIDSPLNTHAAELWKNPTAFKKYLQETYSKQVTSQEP", "chain of UniProt Q9NPD8 (whole entry, looked up)": "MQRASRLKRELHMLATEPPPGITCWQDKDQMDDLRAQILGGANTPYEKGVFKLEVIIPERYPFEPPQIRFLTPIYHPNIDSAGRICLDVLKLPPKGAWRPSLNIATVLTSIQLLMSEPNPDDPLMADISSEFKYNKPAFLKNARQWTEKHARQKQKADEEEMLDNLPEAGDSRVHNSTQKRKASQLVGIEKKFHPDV", "chain of UniProt Q9C0C9 (whole entry, looked up)": "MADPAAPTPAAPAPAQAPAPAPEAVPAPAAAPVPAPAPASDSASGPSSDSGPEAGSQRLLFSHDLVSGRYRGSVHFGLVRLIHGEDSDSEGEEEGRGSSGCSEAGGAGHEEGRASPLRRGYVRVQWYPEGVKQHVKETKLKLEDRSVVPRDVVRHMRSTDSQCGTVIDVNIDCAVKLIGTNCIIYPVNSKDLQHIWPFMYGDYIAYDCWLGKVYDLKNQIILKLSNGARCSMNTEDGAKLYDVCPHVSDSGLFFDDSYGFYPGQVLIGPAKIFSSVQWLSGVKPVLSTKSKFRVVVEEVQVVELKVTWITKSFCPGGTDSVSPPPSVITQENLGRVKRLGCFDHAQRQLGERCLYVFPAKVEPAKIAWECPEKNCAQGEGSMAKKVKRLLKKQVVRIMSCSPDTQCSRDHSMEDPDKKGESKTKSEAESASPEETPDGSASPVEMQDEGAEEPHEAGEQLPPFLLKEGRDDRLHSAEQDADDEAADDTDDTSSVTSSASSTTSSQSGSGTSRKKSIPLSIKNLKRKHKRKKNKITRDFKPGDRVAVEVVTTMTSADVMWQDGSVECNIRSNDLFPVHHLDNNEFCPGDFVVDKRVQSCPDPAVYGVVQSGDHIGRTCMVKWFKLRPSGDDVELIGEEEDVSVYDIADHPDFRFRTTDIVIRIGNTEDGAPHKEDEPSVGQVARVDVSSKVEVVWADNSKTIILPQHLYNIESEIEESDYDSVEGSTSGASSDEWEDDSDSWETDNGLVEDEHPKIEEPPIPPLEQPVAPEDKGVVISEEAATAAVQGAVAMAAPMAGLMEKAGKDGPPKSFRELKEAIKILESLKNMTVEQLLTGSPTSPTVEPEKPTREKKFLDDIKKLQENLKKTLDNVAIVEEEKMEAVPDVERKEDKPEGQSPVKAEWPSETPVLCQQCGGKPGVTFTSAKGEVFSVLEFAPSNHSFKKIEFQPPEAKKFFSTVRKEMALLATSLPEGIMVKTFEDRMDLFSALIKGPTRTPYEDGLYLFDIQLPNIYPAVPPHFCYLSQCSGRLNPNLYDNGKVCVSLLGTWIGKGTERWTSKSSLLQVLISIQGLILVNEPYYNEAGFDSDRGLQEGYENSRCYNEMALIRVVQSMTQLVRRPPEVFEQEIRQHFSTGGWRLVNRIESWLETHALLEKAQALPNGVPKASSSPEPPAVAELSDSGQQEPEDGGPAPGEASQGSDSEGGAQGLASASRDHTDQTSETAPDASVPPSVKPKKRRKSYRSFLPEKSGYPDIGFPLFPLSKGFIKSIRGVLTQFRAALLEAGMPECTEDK", "chain of UniProt Q9H832 (whole entry, looked up)": "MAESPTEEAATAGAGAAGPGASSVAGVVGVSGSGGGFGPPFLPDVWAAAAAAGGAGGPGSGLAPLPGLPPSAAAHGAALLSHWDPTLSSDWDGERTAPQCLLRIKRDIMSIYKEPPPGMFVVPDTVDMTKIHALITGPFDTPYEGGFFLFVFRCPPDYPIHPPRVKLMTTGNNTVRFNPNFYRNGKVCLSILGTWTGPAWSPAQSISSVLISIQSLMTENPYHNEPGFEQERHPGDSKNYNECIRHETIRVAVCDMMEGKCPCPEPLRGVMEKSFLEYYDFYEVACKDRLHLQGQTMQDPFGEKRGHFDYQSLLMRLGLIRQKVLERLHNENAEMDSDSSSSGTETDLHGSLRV", "chain of UniProt Q712K3 (whole entry, looked up)": "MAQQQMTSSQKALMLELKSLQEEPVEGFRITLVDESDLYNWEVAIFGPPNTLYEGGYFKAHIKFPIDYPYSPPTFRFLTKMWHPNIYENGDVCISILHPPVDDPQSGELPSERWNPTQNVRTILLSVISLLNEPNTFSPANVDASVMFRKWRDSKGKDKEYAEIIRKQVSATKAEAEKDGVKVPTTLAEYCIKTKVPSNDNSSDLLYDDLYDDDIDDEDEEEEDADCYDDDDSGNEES", "chain of UniProt Q8N2K1 (whole entry, looked up)": "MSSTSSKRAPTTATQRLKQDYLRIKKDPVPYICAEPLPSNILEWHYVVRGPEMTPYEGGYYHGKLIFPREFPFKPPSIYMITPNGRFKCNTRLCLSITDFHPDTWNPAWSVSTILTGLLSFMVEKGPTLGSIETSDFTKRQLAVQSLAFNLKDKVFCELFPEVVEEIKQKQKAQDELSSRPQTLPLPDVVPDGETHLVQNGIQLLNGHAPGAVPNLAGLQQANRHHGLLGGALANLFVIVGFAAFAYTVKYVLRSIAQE", "chain of UniProt Q9Y385 (whole entry, looked up)": "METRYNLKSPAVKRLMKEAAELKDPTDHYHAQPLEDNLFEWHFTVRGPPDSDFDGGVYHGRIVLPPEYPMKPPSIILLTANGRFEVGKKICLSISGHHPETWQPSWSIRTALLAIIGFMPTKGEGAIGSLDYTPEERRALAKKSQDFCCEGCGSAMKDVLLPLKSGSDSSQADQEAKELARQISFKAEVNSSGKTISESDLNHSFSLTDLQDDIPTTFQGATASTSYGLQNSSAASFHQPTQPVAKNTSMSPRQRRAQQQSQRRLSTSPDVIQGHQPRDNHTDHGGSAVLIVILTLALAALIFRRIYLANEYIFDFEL"}
{"data": "Series 1", "Sequence": "YQNEVDDDLVCHICLQPLLQPLDTPCGHTFCYKCLRNFLQEKDFCPLDRKRLHFKLCKK (LNX2 RING domain (UniProt Q8N448))", "method": "yeast two-hybrid", "medium": "yeast", "setting": "mostly zero background", "relative to": "not given", "reading": "higher = stronger interaction"}
{"target": "UBE2I UBC core domain (UniProt P63279)", "lacZ reporter activity": 0}
{"target": "UBE2J2 UBC core domain (UniProt Q8N2K1)", "lacZ reporter activity": 0}
{"target": "UBE2R2 UBC core domain (UniProt Q712K3)", "lacZ reporter activity": 0}
{"target": "UBE2L3 UBC core domain (UniProt P68036)", "lacZ reporter activity": 0}
{"target": "UBE2O UBC core domain (UniProt Q9C0C9)", "lacZ reporter activity": 0}
{"target": "UBE2T UBC core domain (UniProt Q9NPD8)", "lacZ reporter activity": 0}
{"target": "UBE2G1 UBC core domain (UniProt P62253)", "lacZ reporter activity": 0}
{"target": "UBE2E3 UBC core domain (UniProt Q969T4)", "lacZ reporter activity": 0}
{"target": "UBE2M UBC core domain (UniProt P61081)", "lacZ reporter activity": 0}
{"target": "UBE2C UBC core domain (UniProt O00762)", "lacZ reporter activity": 0}
{"target": "BIRC6 UBC core domain (UniProt Q9NR09)", "lacZ reporter activity": 0}
{"target": "UBE2Z UBC core domain (UniProt Q9H832)", "lacZ reporter activity": 0}
{"target": "UBE2J1 UBC core domain (UniProt Q9Y385)", "lacZ reporter activity": 0}
{"data": "Series 2", "target": "FOSL1, bZIP domain (human)", "method": "DHFR protein complementation", "medium": "yeast", "setting": "single substitutions, most at no-binding floor", "relative to": "wild-type JUN-FOS pair", "reading": "higher = stronger binding", "starting sequence": "JUN, bZIP domain (human); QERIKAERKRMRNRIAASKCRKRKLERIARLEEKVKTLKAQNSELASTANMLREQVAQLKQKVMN; partner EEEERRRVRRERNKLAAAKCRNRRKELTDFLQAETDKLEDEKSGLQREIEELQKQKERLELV"}
{"Variant": "T37L", "binding fitness": "-0.286 natural log"}
{"Variant": "R53D", "binding fitness": "-1.45 natural log"}
{"Variant": "L52C", "binding fitness": "-1.47 natural log"}
{"Variant": "E32N", "binding fitness": "-0.63 natural log"}
{"Variant": "N42R", "binding fitness": "-0.762 natural log"}
{"Variant": "L59H", "binding fitness": "-1.37 natural log"}
{"Variant": "A40D", "binding fitness": "-0.493 natural log"}
{"Variant": "E33R", "binding fitness": "-0.586 natural log"}
{"Variant": "V35A", "binding fitness": "-0.779 natural log"}
{"Variant": "A49F", "binding fitness": "-1.38 natural log"}
{"Variant": "E33P", "binding fitness": "-1.49 natural log"}
{"Variant": "R53H", "binding fitness": "-1.14 natural log"}
{"Variant": "K34F", "binding fitness": "-1.16 natural log"}
{"Variant": "T37M", "binding fitness": "-0.0901 natural log"}
{"Variant": "A40N", "binding fitness": "-0.534 natural log"}
{"Variant": "S43V", "binding fitness": "-0.528 natural log"}
{"Variant": "I28M", "binding fitness": "-0.531 natural log"}
{"Variant": "A57Y", "binding fitness": "-0.559 natural log"}
{"data": "Series 3", "target": "Interferon regulatory factor 3, full length, phosphomimetic (IRF3, Homo sapiens, UniProt Q14653, residues 1-427, S386D/S396D/S398D/S402D/T404D/S405D)", "method": "protein-binding microarray", "molecule type": "double-stranded DNA, one strand shown", "medium": "in vitro", "tested at": "2540 nM top", "setting": "60-bp whole probe", "added": "salmon DNA 0.4 mg/ml", "relative to": "random background probes", "reading": "higher = stronger binding", "shared flanks, not repeated": "GCCTAGCAC … GTCTTGATTCGCTTGACGCTGCTG", "Target sequence (chain)": "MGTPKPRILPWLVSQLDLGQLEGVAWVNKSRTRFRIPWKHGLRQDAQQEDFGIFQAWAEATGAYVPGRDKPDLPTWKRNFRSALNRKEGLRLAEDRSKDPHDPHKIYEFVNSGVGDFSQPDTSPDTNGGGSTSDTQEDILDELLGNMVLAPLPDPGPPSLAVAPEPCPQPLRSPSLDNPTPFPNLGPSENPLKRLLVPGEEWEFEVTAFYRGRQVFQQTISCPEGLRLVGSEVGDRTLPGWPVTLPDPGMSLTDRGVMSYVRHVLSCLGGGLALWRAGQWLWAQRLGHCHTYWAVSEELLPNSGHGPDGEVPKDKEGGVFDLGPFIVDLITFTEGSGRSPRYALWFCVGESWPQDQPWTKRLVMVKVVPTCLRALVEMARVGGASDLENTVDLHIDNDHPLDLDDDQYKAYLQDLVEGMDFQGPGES"}
{"Sequence": "GACGGCTTCGGTTTCGGGACGTGCTAG", "fitted relative affinity [z-score]": 3.19}
{"Sequence": "TCATGCTTCGAGATCTCACTGTGCTAG", "fitted relative affinity [z-score]": -0.362}
{"Sequence": "CTTTTTAGAAATTTCTTTCTGTGCTAG", "fitted relative affinity [z-score]": 4.29}
{"Sequence": "GACGAACTAAGACTGGAGACGTGCTAG", "fitted relative affinity [z-score]": -0.159}
{"Sequence": "TTATGACTGGGGTTTCGGTTAGTGCTA", "fitted relative affinity [z-score]": 2.5}
{"Sequence": "CCCAGACTTGATTTTGGTCTGTGCTAG", "fitted relative affinity [z-score]": -0.0476}
{"Sequence": "GACGGTATCGACTATCCGGACGTGCTA", "fitted relative affinity [z-score]": 0.977}
{"Sequence": "TCATCACTCTAATCTCACACTGTGCTA", "fitted relative affinity [z-score]": 0.383}
{"Sequence": "GACGGTCTCCTTATGCTGACGTGCTAG", "fitted relative affinity [z-score]": 2.05}
{"Sequence": "GACTAACTGAGTTTCGAGACGTGCTAG", "fitted relative affinity [z-score]": 1.3}
{"Sequence": "GAACATACTAGTTTCCATTTGTGCTAG", "fitted relative affinity [z-score]": 6.35}
{"Sequence": "TTAGGTCGCCTACTGCTTTAGTGCTAG", "fitted relative affinity [z-score]": -0.181}
{"Sequence": "GACGGTCTCGGTATCGGCACGTGCTAG", "fitted relative affinity [z-score]": 1.45}
{"Sequence": "AAATATATACAAACTAAGGATGTGCTA", "fitted relative affinity [z-score]": 0.602}
{"Sequence": "TTAGGTAGCGACACTGGGTTAGTGCTA", "fitted relative affinity [z-score]": -0.631}
{"Sequence": "TTAGGTTTCCTACCGCTTTAGTGCTAG", "fitted relative affinity [z-score]": 3.65}
{"Sequence": "CCCTGCGTGGTCTCGAGCTGGTGCTAG", "fitted relative affinity [z-score]": -0.678}
{"Sequence": "GACTGTATCGGTCTCGGGACGTGCTAG", "fitted relative affinity [z-score]": 4.56}
{"Sequence": "AACTCTCTAATTTTGAGACTGTGCTAG", "fitted relative affinity [z-score]": 0.459}
{"data": "Series 4", "target": "Prothrombin, mature alpha-thrombin (F2, Homo sapiens, UniProt P00734)", "method": "aptamer microarray, sandwich", "molecule type": "DNA with 2'F-ANA", "medium": "in vitro", "tested at": "200 nM", "setting": "whole 15-mer aptamer, many near background", "added": "Cy3 exosite-II aptamer, 400 nM", "reading": "higher = stronger binding", "sequence": "GGTTGGTGTGGTTGG"}
{"Modification": "2'F-ANA at 2 3 5 7 8 9 10 11", "mean fluorescence intensity [a.u.]": 59.1}
{"Modification": "2'F-ANA at 4 5 8 15", "mean fluorescence intensity [a.u.]": 73.1}
{"Modification": "2'F-ANA at 4 8 12 13 14", "mean fluorescence intensity [a.u.]": 139}
{"Modification": "2'F-ANA at 2 4 6 7 10 11 12 13 14", "mean fluorescence intensity [a.u.]": 62.4}
{"Modification": "2'F-ANA at 2 4 5 12 13 15", "mean fluorescence intensity [a.u.]": 96.9}
{"Modification": "2'F-ANA at 1 10 11 12 13 15", "mean fluorescence intensity [a.u.]": 70.3}
{"Modification": "2'F-ANA at 3 4 6 11 12 13 14", "mean fluorescence intensity [a.u.]": 281}
{"Modification": "2'F-ANA at 2 5 6 10 11 13", "mean fluorescence intensity [a.u.]": 45.3}
{"Modification": "2'F-ANA at 1 2 4 7 8 11 12 14 15", "mean fluorescence intensity [a.u.]": 75.9}
{"Modification": "2'F-ANA at 3 8 11 12 14", "mean fluorescence intensity [a.u.]": 754}
{"Modification": "2'F-ANA at 1 3 4 5 6 13 14 15", "mean fluorescence intensity [a.u.]": 44.7}
{"Modification": "2'F-ANA at 1 2 4 7 8 9 10 12 13 14", "mean fluorescence intensity [a.u.]": 49.2}
{"Modification": "2'F-ANA at 2 3 8 10 11 14 15", "mean fluorescence intensity [a.u.]": 264}
{"Modification": "2'F-ANA at 1 2 5 7 8 9 10 11 12 15", "mean fluorescence intensity [a.u.]": 82.4}
{"Modification": "2'F-ANA at 1 4 5 6 7 11 12 13", "mean fluorescence intensity [a.u.]": 64.6}
{"Modification": "2'F-ANA at 1 2 3 5 7 8 9 10 11 12", "mean fluorescence intensity [a.u.]": 74}
{"Modification": "2'F-ANA at 1 3 5 8 10 11 14", "mean fluorescence intensity [a.u.]": 111}
{"Modification": "2'F-ANA at 2 3 4 7 8 11 12 13 14", "mean fluorescence intensity [a.u.]": 393}
{"Modification": "2'F-ANA at 1 3 4 5 6 9 10 11 12 13", "mean fluorescence intensity [a.u.]": 78.8}
{"data": "Series 5", "target": "CCNB1, cyclin fold, Cln2 fusion (human)", "method": "yeast growth competition, sequencing", "medium": "yeast", "setting": "weak parent motif", "relative to": "not given", "reading": "higher = stronger binding", "starting sequence": "REV3L docking peptide (human); PPVIIKYIIINRF"}
{"Variant": "P2A", "normalised enrichment score": 0.313}
{"Variant": "K6A", "normalised enrichment score": 0.0952}
{"Variant": "I5A", "normalised enrichment score": 0.214}
{"Variant": "V3A", "normalised enrichment score": 0.0565}
{"Variant": "Y7A", "normalised enrichment score": 0.155}
{"Variant": "I10A", "normalised enrichment score": 0.353}
{"Variant": "N11A", "normalised enrichment score": 0.614}
{"note": "For quick reference, copied from above (series 2):"}
{"Variant": "T37M", "binding fitness": "-0.0901 natural log"}
{"Variant": "A40D", "binding fitness": "-0.493 natural log"}
{"Variant": "R53D", "binding fitness": "-1.45 natural log"}
{"Variant": "T37L", "binding fitness": "-0.286 natural log"}
{"Variant": "E32N", "binding fitness": "-0.63 natural log"}
